Experimental data pooled from the literature.
Each line is one published result; not all experiments were run side by side.

For CO[C@@H]1[C@@H](OC(N)=O)[C@@H](O)[C@H](Oc2ccc3c(O)c(NC(=O)c4ccc(O)c(CC=C(C)C)c4)c(=O)oc3c2C)OC1(C)C, the colony survival was 79.5% (HCT-116 BRCA2 wild-type; 150 µM, replicate B; relative to: untreated).
Under “log2 fold change”, CN1CCCNC(=O)c2cccc(c2)C(=O)NCCCN(C)CCCNc2cccc3c2C(=O)c2cccc(c2C3=O)NCCC1 is recorded as 1.15 (SAS; RNA-Seq, measured: HEXIM2 mRNA; 1 µM, 6 h; relative to: untreated cells).
CCN(CC)CC(=O)Nc1cccc(-n2cc(-c3ccc4ccc(-c5cn(-c6cccc(NC(=O)CN(CC)CC)c6)nn5)cc4c3)nn2)c1 gave a fold regulation of 1.13 (RCC4; PCR angiogenesis array, measured: ANGPT1; 5 x IC50, 6 h, normoxia; relative to: untreated).
For CNS(=O)(=O)Nc1nccc(Cc2c(C)c3ccc(Oc4ncccc4F)cc3oc2=O)c1F, the IC50 was over 1000 nM (SH-4; cell viability; 7 days).
The IC50 of CC(C)c1ccc(N(C)c2ccc3c(c2)OCC[C@H]3CNc2cnccc2C(=O)O)cc1 is reported as 40 nM (SK-LU-1; cell viability, CellTiter-Glo; 7 days).
With CCN(C(=O)c1cc(F)ccc1Oc1nncnc1N1CCC2(C1)CN([C@H](CCCN(C)CCOC)C(C)C)C2)C(C)C the GI50 was over 10 µM (A673; muscle; 72 h).
Under “log2 fold change”, Cc1ncsc1-c1ccc(C(C)NC(=O)C2CC(O)CN2C(=O)C(NC(=O)CCCCCCCCCCN2CCCC(Nc3ncc(Cl)c(Nc4ccccc4S(=O)(=O)C(C)C)n3)C2)C(C)(C)C)cc1 (stereo not drawn) is recorded as -1.63 (22Rv1; RNA-seq, measured: TECPR2 mRNA; concentration not given; relative to: DMSO).
COc1ccccc1-c1ccncc1C(=O)Nc1nnc(OCc2ccc(Cl)cc2)s1 gave a colony survival of 48.6% (MDA-MB-436 BRCA1-mutant; 3 µM, mean of 3 replicates; relative to: untreated).
Under “fold change in expression”, Cn1ncc2cc(-c3cncc(Cl)c3N3CCC4(CCNC4=O)CC3)ccc21 is recorded as -2.55 (LS174T; microarray, measured: DAGLA; concentration not given, 24 h, gene set DGL-alpha; relative to: untreated cells).
